Measured values collected from several papers.
Numbers after ± are the reported error. Non-standard residues stand in square brackets, D forms with d. No end group written: not given here.

The retention time of `CC(=O)N[C@H](CCCCN)C(=O)N[C@H](CC(C)C)C(=O)N[C@@H](CCN)C(=O)N[C@H](CO)C(=O)N[C@H](CC(C)C)C(=O)N[C@H](CC(C)C)C(=O)N[C@@H](CCN)C(=O)N[C@@H](C(=O)N[C@H](CC(C)C)C(=O)N[C@H](CO)C(=O)N[C@@H](CCN)C(=O)N[C@H](C)C(=O)N[C@H](CCCCN)C(=O)N[C@H](C)C(=O)N[C@H](C)C(=O)N[C@H](CCCCN)C(=O)N[C@H](CC(C)C)C(=O)N[C@@H](CCN)C(=O)N[C@@H](C(=O)N[C@H](CC(C)C)C(=O)N[C@H](CC(C)C)C(=O)N[C@@H](CCN)C(=O)N[C@H](C)C(=O)N[C@H](CC(C)C)C(=O)N[C@H](CO)C(=O)N[C@@H](CCN)C(N)=O)[C@H](C)O)[C@H](C)O` is reported as 116 min (RP-HPLC C8; pH 2, 25 °C, hydrophobicity measure).
The retention time of `N=C(N)NCCC[C@H](NC(=O)[C@H](Cc1c[nH]c2ccccc12)NC(=O)[C@H](CCC(N)=O)NC(=O)[C@H](Cc1c[nH]c2ccccc12)NC(=O)[C@H](CCCNC(=N)N)NC(=O)[C@H](Cc1c[nH]c2ccccc12)NC(=O)[C@H](CCC(N)=O)NC(=O)[C@H](Cc1c[nH]c2ccccc12)NC(=O)[C@H](CCCNC(=N)N)NC(=O)CCCCCN)C(N)=O` is reported as 6.3 min (RP-HPLC, C18 column; water/acetonitrile gradient with TFA).
For `C[C@H](OC(C)(C)C)[C@H](NC(=O)OCC1c2ccccc2-c2ccccc21)C(=O)O`, “retention time difference” read 22.1 min (reversed-phase HPLC; reference: fluorinated over non-fluorinated analogue).
`N=C(N)NCCC[C@H](NC(=O)[C@H](Cc1c[nH]c2ccccc12)NC(=O)[C@H](CCC(N)=O)NC(=O)[C@H](Cc1c[nH]c2ccccc12)NC(=O)[C@H](CCCNC(=N)N)NC(=O)[C@H](Cc1c[nH]c2ccccc12)NC(=O)[C@H](CCC(N)=O)NC(=O)[C@H](Cc1c[nH]c2ccccc12)NC(=O)[C@@H](N)CCCN)C(N)=O` has a retention time of 6.4 min (RP-HPLC, C18 column; water/acetonitrile gradient with TFA).
The retention time of `NC(=O)CC[C@H](NC(=O)[C@H](CCC(N)=O)NC(=O)[C@H](CC(N)=O)NC(=O)[C@@H](N)CC(N)=O)C(=O)N[C@@H](CC(N)=O)C(=O)N[C@@H](Cc1ccc(O)cc1)C(=O)O` is reported as roughly 10 min (analytical RP-HPLC; C18 column).
`CCCCCCCCCCCCCCCCCC(=O)NCCCC[C@H](NC(=O)CCCCCCCCCCCCCCCCC)C(=O)N[C@@H](CCCCN)C(=O)N[C@@H](CCCCN)C(=O)N[C@@H](CCCCN)C(=O)N[C@@H](CCCCN)C(=O)N[C@@H](CCCCN)C(N)=O` has a retention time of 27.8 min (RP-HPLC C18).
`C[C@H](NC(=O)[C@H](Cc1c[nH]c2ccccc12)NC(=O)[C@H](CCC(N)=O)NC(=O)[C@H](Cc1c[nH]c2ccccc12)NC(=O)[C@H](CCCNC(=N)N)NC(=O)[C@H](Cc1c[nH]c2ccccc12)NC(=O)[C@H](CCC(N)=O)NC(=O)[C@H](Cc1c[nH]c2ccccc12)NC(=O)[C@@H](N)CCCNC(=N)N)C(N)=O` gave a retention time of 6.7 min (RP-HPLC C18; hydrophobicity measure).
Under “retention time shift”, `Trp-[Phe(4-F)] (Trp-4-fluoro-Phe; Phe(4-F) = N[C@@H](Cc1ccc(F)cc1)C(=O)O)` is recorded as 6.13 min (RP-HPLC C18; reference: non-fluorinated analogue).
For `RWQWRWQWR`, the retention time was 5.8 min (RP-HPLC, C18 column; peptide; higher is more hydrophobic).
With `C[C@H](NC(=O)[C@@H](N)CCCNC(=N)N)C(=O)N[C@@H](CCC(N)=O)C(=O)N[C@@H](Cc1c[nH]c2ccccc12)C(=O)N[C@@H](CCCNC(=N)N)C(=O)N[C@@H](Cc1c[nH]c2ccccc12)C(=O)N[C@@H](CCC(N)=O)C(=O)N[C@@H](Cc1c[nH]c2ccccc12)C(=O)N[C@@H](CCCNC(=N)N)C(N)=O` the retention time was 5.8 min (RP-HPLC C18; hydrophobicity measure).
`CC(=O)N[C@@H](Cc1c[nH]c2ccccc12)C(=O)N[C@@H](CCCCN)C(=O)N[C@@H](Cc1c[nH]c2ccccc12)C(=O)N[C@@H](CCC(=O)O)C(=O)N[C@@H](Cc1c[nH]c2ccccc12)C(=O)N[C@@H](CCCCN)C(=O)N[C@@H](Cc1c[nH]c2ccccc12)C(=O)N[C@@H](CCC(=O)O)C(N)=O` has a retention time of 12.8 min (reverse-phase HPLC C18).
`CC(C)(C)O[C@H]([C@H](NC(=O)OCC1c2ccccc2-c2ccccc21)C(=O)O)C(F)(F)F`: “retention time shift per fluorine” 7.37 min (RP-HPLC C18; 25 °C; reference: non-fluorinated analogue).
Under “retention by placental lobule”, `CC[C@H](C)C(=O)O[C@H]1C[C@H](O)C=C2C=C[C@H](C)[C@H](CC[C@@H](O)C[C@@H](O)CC(=O)O)[C@H]21` is recorded as 20 ± 4% (perfused human placental lobule; 50 ng/mL, 4 h, fetal-to-maternal; reference: initial donor concentration).
For `C[C@H](NC(=O)[C@H](Cc1c[nH]c2ccccc12)NC(=O)[C@H](CCCNC(=N)N)NC(=O)[C@H](Cc1c[nH]c2ccccc12)NC(=O)[C@H](CCC(N)=O)NC(=O)[C@H](Cc1c[nH]c2ccccc12)NC(=O)[C@@H](N)CCCNC(=N)N)C(=O)N[C@@H](Cc1c[nH]c2ccccc12)C(=O)N[C@@H](CCCNC(=N)N)C(N)=O`, the retention time was 6.5 min (RP-HPLC C18; hydrophobicity measure).
`Trp-Phe` — result for “retention time shift per fluorine”: 6.13 min (RP-HPLC C18; 25 °C; reference: non-fluorinated analogue).
With `CC(=O)N[C@@H](Cc1ccc(-c2ccccc2)cc1)C(=O)N[C@@H](CCCCN)C(=O)N[C@@H](Cc1ccc(-c2ccccc2)cc1)C(=O)N[C@@H](CCC(=O)O)C(=O)N[C@@H](Cc1ccc(-c2ccccc2)cc1)C(=O)N[C@@H](CCCCN)C(=O)N[C@@H](Cc1ccc(-c2ccccc2)cc1)C(=O)N[C@@H](CCC(=O)O)C(N)=O` the retention time was 15 min (reverse-phase HPLC C18).
